# Assay results collected from several papers.
# Each line is one published result; not all experiments were run side by side. Numbers after ± are the reported error.
Compound,test system,setting,AUC
CCCCOC(=O)CCCCCCCCCCCNC(=O)NC12CC3CC(CC(C3)C1)C2,"dog, plasma","oral, 0.3 mg/kg",not detected
CC(C)=CCC[C@](C)(O[C@@H]1O[C@H](CO[C@@H]2O[C@H](CO)[C@@H](O)[C@H](O)[C@H]2O)[C@@H](O)[C@H](O)[C@H]1O)[C@H]1CC[C@]2(C)[C@@H]1[C@H](O)C[C@@H]1[C@@]3(C)CC[C@H](O[C@@H]4O[C@H](CO)[C@@H](O)[C@H](O)[C@H]4O[C@@H]4O[C@H](CO)[C@@H](O)[C@H](O)[C@H]4O)C(C)(C)[C@@H]3CC[C@]12C,"Sprague Dawley rats, plasma","oral, 100 mg/kg, 0 to 48 h, control group sterile water",13700 ± 1080 ng·h/mL
CC(C)=CCC[C@](C)(O[C@@H]1O[C@H](CO)[C@@H](O)[C@H](O)[C@H]1O)[C@H]1CC[C@]2(C)[C@@H]1[C@H](O)C[C@@H]1[C@@]3(C)CC[C@H](O[C@@H]4O[C@H](CO)[C@@H](O)[C@H](O)[C@H]4O[C@@H]4O[C@H](CO)[C@@H](O)[C@H](O)[C@H]4O)C(C)(C)[C@@H]3CC[C@]12C,"Sprague-Dawley rat, plasma","oral, 2000 mg/kg ginseng extract, diet with NUTRIOSE 10% for 2 weeks",15200 ± 6090 ng·h/mL
CC(C)=CCC[C@](C)(O[C@@H]1O[C@H](CO)[C@@H](O)[C@H](O)[C@H]1O)[C@H]1CC[C@]2(C)[C@@H]1[C@H](O)C[C@@H]1[C@@]3(C)CC[C@H](O[C@@H]4O[C@H](CO)[C@@H](O)[C@H](O)[C@H]4O[C@@H]4O[C@H](CO)[C@@H](O)[C@H](O)[C@H]4O)C(C)(C)[C@@H]3CC[C@]12C,"Sprague-Dawley rat, plasma","oral, 100 mg/kg of parent ginsenoside, 0 to 48 h, control group, no prebiotic",849 ± 141 ng·h/mL
CCCCCCCCCCCCCCCCCCOP(=O)([O-])OC1CC[N+](C)(C)CC1,"rhesus monkey, male, plasma","oral, 7 mg/kg, single dose, median of 3",3150 µM·h
CN1CCN(c2ccc(Nc3ncc4cc(C#N)c(=O)n(C5CCCC5)c4n3)cc2)CC1,"NIH Swiss nude mice, intracerebral U87 tumour, plasma","intravenous, 25 mg/kg, together with: gefitinib 200 mg/kg oral 1 h before",6350 ng·h/mL
OCCc1ccc(O)cc1,"C57BL/6J obese male mice, brain","oral, 200 mg/kg, 0 to 12 h",6.35 ± 0.68 nmol·min/g
Fc1ccc(Nc2n[nH]c3cccnc23)cc1Cl,"Sprague-Dawley rat, male, plasma","oral, 15 mg/kg, 1 times daily, day 4",200 µM·h
Cn1ncnc1[C@H]1c2n[nH]c(=O)c3cc(F)cc(c23)N[C@@H]1c1ccc(F)cc1,"FVB mice, female, wild type, plasma","oral, 0.5 mg/kg, 0 to 4 h, no novobiocin pretreatment",702 ng·h/mL
CCCSc1nc(N[C@@H]2C[C@H]2c2ccc(F)c(F)c2)c2nnn([C@@H]3C[C@H](OCCO)[C@@H](O)[C@H]3O)c2n1,"female Wistar Han rats, plasma","oral, 60 mg/kg/day, week 52, carcinogenicity study",163 µM·h
Cc1cc(-c2cc(OC(=O)c3ccccc3)ccc2Cl)cc2nnc(Nc3ccc(OCCN4CCCC4)cc3)nc12,"C57BL/6 mice, retina","topical ocular, 1 %, 0 to 24 h",1.07 µM·h
CC#C[C@]1(O)CC[C@H]2[C@@H]3CCC4=CC(=O)CCC4=C3[C@@H](c3ccc(N(C)C)cc3)C[C@@]21C,"male cynomolgus monkey, plasma","oral, 50 mg/kg single dose, together with: ritonavir 30 mg/kg",2650 ng·h/mL

# Excerpt of the above:
Compound,test system,setting,AUC
Cn1ncnc1[C@H]1c2n[nH]c(=O)c3cc(F)cc(c23)N[C@@H]1c1ccc(F)cc1,"FVB mice, female, wild type, plasma","oral, 0.5 mg/kg, 0 to 4 h, no novobiocin pretreatment",702 ng·h/mL
CCCSc1nc(N[C@@H]2C[C@H]2c2ccc(F)c(F)c2)c2nnn([C@@H]3C[C@H](OCCO)[C@@H](O)[C@H]3O)c2n1,"female Wistar Han rats, plasma","oral, 60 mg/kg/day, week 52, carcinogenicity study",163 µM·h
